# Assay results from different studies.
# A part holds a random share of what one study measured. Substitutions count along the parent as printed.

# Study 1
# Target: CCNE2, cyclin fold, Cln2 fusion (human)
# Technique: yeast growth competition, sequencing
# Sample: yeast
# Notes: weak parent motif
# Baseline: not given
# Reading: higher = stronger binding
# Starting sequence: SAMHD1 docking peptide (human); ASKSRVQLFKDDP; partner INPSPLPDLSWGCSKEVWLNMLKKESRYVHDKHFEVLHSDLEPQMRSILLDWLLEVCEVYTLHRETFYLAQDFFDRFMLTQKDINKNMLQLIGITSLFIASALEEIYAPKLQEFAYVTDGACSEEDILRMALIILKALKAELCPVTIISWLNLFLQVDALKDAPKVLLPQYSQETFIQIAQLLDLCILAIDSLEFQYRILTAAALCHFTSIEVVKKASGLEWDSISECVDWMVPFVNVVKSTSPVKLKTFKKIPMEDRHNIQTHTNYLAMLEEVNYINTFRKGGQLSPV
Variant,normalised enrichment score
S2V,0.353
S4E,-0.195
V6W,0.0742
Q7M,-0.227
S4Y,0.327
D11C,0.334
F9D,0.225
V6C,0.175
D11N,0.479
L8R,-0.35
R5W,0.626

# Study 2
# Target: Sal-like protein 4, full length isoform A (SALL4, Homo sapiens, UniProt Q9UJQ4, residues 1-1053)
# Sequence of UniProt Q9UJQ4 (whole entry, looked up): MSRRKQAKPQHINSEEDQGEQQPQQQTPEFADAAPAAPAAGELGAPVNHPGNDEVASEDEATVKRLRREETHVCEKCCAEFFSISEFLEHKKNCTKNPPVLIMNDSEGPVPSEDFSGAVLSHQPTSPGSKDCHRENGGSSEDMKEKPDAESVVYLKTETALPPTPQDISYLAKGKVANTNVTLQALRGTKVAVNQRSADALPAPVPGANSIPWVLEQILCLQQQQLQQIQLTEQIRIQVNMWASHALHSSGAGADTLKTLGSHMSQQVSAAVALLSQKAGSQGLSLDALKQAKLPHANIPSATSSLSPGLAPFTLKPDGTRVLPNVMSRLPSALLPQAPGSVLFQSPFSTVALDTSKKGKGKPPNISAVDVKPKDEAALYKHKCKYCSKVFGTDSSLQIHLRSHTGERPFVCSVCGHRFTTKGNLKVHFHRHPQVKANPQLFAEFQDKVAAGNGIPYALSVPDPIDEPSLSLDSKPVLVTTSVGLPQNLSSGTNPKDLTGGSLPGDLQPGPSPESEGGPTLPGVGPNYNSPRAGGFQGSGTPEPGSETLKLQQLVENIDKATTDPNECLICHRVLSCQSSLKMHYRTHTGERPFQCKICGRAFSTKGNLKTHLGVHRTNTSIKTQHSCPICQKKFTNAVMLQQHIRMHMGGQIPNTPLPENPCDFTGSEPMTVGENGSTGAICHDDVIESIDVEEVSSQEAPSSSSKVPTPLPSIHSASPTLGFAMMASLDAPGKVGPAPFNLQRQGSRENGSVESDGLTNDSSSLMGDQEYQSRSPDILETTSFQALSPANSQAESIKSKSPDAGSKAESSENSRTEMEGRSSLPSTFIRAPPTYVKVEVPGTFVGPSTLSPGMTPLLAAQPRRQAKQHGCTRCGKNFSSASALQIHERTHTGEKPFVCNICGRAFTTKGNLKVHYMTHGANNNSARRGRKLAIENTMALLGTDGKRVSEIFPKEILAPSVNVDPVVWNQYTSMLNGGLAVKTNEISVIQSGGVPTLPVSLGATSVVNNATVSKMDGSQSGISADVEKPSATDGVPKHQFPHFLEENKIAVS
# Technique: universal PBM
# Form: double-stranded DNA, one strand shown
# Sample: in vitro
# Tested at: 600 nM
# Notes: 8-mer, flanks averaged, mean of replicates
# Reading: higher = stronger binding
Oligonucleotide,E-score
CAACACTA,0.117
AGCGTACC,-0.25
GACAACCC,-0.294
CTGTAAGA,0.0348
ACTTCAGA,0.0754
ATCAGTAA,0.232
AACGACCG,-0.233
CTCCTCCA,-0.0888
ATAGAGCC,-0.101
TAGTAAGA,0.124
GAATACGA,0.227

# Study 3
# Target: RNA binding protein fox-1 homolog 2, RRM domain, GST-SBP tag (RBFOX2, Homo sapiens, UniProt O43251-10, residues 100-194)
# Technique: RNA Bind-n-Seq
# Form: RNA
# Sample: in vitro
# Tested at: 365 nM
# Notes: natural RNA segment, single round, ends assumed
# Baseline: no-protein control
# Reading: higher = stronger binding
# All sequences stand within: GGGAGUUCUACAGUCCGACGAUC … UGGAAUUCUCGGGUGCCAA
# Target sequence (chain): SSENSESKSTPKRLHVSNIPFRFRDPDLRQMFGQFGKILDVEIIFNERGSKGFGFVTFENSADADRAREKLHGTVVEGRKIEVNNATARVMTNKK
Oligonucleotide,RBNS enrichment (R)
ACCAUUUUUUUUACCUGAUUUUUGUUUUCAAAUAAGAAUGUAAGCAUUUUACUUAAAUUUUACUGUUUGCAAGUAGUCUAUAGAAAUUUUGUUUUAAGUCUUCAAAUAUC,0.533
UGCUCUCAGGCAGCACAUCUUGCAAACAGUUUGGAGAAGGAGGCUGUUUUUGUUGAAUCGAGUUCUCAAAUCGGUUUAGACCAAAGCCAUUCUUCUGACCCUCUAGAUAA,0.347
GUAUAUGGACAGGCCUGCAUCACAGCAUCCUAGACUUCUUUGGAGACCCGUUUGAUAGUACUUUCAGUUUUUGGCAUUUGGGGUACUUUGAAAUCCAACUUGUUUUUAAA,0.948
ACUCACUCUCAUUUGUAAGCAGUCCACAUAGUAGACAAUGGGUUUUCCAAGCUGGGCAAGGUACAUUUAAUCAGUAAAUCAGUUUCACAUCAUGUAUUGUGAUGUUUCAA,0.517
CUGGGCUCUUACAGAGCCUCCAUGAGUCAAGCCCCCUCCCCACACCUGGACUCCAGAAUUCACCCUCUCCCCUGCAGUCUGGGUUCCCAGACUGAGUCCUCUCCCCAAAU,0.411
GUAACUUUUGAUACCAGAAUAAAUCUUUCGUGUUUGUCACUAAAGCAUCGGAGUCUCGCUAGUUUCUCAUGGUUGGGUCACAGCAUCCUUGUCGCUGUAUUAAGUGCAGU,0.33
GGCAGAGGCAACAGUGUUUAGGAUUUGGGUUAUCAUAAGGUGUUAAGAGUCCCUUGUUAAAGGGGCAGUGGGAGUUAUGGGGUCAUCAAGGACCUUGCCUCUCUGGAAUC,1.02
UUUAGAUCCUUGGAGACUUUUCCUGUAUGCCUUCCAAAACUUCCUGCUCACUUAGAUGUACCUUGUGCUUUGAAGAUUUCUUUGAUGCAGUCUUUGUAACAAAUAAUUUU,0.467
CUCGCAAAAUGAUGUGAAAGGACCAGUUUCUUGAAGUCCAGUGUUUCCACGGCUGGAUACCUGUGUGUCUCCAUAAAAGUCCUGUCACCAAGGACGUUAAAGGCAUUUUA,0.332
UUAGUCCAAGGCCUUUUUCAUAAACUGAGCCUCUUUUCAAUUAUUUCAAUGGGACAGGAACUAGGAUAGAUGUGAUUCCUGCAUUUUUUUACCUUAAAUCUGCCUUUGUU,0.757
UCUAACCCACGCCGGGAUAUCCCUACACCUUCCCAGGGCUUUUAUGUCAGAUGCACCCAAGUCCUUAGCCCAUCUGUGCCACUGCAAGAGUCUGCUCUUGUAUUUCUUUC,0.807
CCCCCUGUCUCUCCUCAGCAGUCUGAGUGCAACCCCGUCGGUGCUCUGCAGGAGCUGGUGGUGCAAAAAGGCUGGCGUUUGCCAGAGUACAUGGUGACCCAAGAGUCUGG,0.672

# Mixed results
Molecule,target,test,system,conditions,how to read,endpoint,result
"PhoQ, residues 284 288 289 292 302 303 ASTSDA","PhoP, residues 12 14 15 18 19 TPLRH (Escherichia coli, UniProt P23836)","Sort-seq, measured: YFP reporter",E. coli,"PhoQ-PhoP variant library, with: 10 µM Mg2+","baseline: high Mg2+ state, higher = stronger signaling",fold induction,1.54
